Published values collected from several papers.
Parts stem from different laboratories: compare values within a part only.

Block 1
Target: Histone acetyltransferase KAT6A, winged helix 2, GST fusion (KAT6A, Homo sapiens, UniProt Q92794, residues 85-181)
Method: protein binding microarray
Molecule type: double-stranded DNA, one strand shown
Sample: in vitro
Tested at: not given
Setting: 8-mer, flanks averaged, mean of 2 arrays, mostly near background
Reference: not given
Direction: higher = stronger binding
Residues (chain): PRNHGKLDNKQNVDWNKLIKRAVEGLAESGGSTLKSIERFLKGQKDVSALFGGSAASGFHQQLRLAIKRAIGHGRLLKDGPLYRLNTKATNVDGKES
For `CGTTCTGA`, the E-score was 0.00226.
With `GGATTCAA` the E-score was 0.0413.
The E-score of `AGTGTCAA` is reported as -0.00626.
`ATGGCCCG` has an E-score of 0.177.
The E-score of `CAGGTTAG` is reported as 0.0238.
`CGCTTGAC` has an E-score of 0.0318.

Block 2
Target: TAR DNA-binding protein 43, full length, His tag (TARDBP, Homo sapiens, UniProt Q13148, residues 1-414)
Method: RNA Bind-n-Seq
Molecule type: RNA
Sample: in vitro
Tested at: 20 nM
Setting: 6-mer, flanks averaged, single round
Added: 150 mM LiCl
Reference: input library
Direction: higher = stronger binding
`UGCGCG` — result for “6-mer enrichment (R)”: 1.14.
Under “6-mer enrichment (R)”, `UAAAGA` is recorded as 0.833.
For `UAUGGC`, “6-mer enrichment (R)” read 1.01.
For `ACAUUG`, “6-mer enrichment (R)” read 0.887.
For `UCACAC`, “6-mer enrichment (R)” read 0.857.

Block 3
Target: Transcriptional repressor CTCF (CTCF, Homo sapiens, UniProt P49711, residues 1-727, full length assumed)
Method: protein-binding microarray
Molecule type: double-stranded DNA, one strand shown
Sample: in vitro
Tested at: not given
Setting: k-mer, scored over probes, only values ≥0.25
Direction: higher = stronger binding
Target sequence (chain): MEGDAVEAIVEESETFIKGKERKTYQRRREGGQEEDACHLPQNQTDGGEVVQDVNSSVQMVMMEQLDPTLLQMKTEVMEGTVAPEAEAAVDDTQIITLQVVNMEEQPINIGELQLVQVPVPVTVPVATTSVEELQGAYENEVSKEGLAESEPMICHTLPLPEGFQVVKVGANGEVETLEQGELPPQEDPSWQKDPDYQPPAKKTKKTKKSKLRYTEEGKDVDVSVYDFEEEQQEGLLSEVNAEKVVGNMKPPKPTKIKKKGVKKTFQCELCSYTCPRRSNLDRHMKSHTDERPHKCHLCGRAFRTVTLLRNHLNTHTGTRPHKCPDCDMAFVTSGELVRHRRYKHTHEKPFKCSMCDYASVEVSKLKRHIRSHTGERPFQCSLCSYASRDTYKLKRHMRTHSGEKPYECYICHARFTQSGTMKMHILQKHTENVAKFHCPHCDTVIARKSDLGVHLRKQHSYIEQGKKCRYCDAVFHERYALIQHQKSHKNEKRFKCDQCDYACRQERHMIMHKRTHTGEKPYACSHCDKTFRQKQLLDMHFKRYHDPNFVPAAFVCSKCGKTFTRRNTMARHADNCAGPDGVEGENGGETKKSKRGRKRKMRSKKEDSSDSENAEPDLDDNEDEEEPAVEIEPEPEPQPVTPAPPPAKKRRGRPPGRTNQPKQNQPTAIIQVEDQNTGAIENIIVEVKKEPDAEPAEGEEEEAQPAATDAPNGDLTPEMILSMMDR
`AATACATG` gave an E-score of 0.26.
`CAACTGTA` gave an E-score of 0.253.
With `AATTTAAT` the E-score was 0.279.
With `ACATGTAA` the E-score was 0.318.
With `ACAAAATG` the E-score was 0.283.

Other studies, line by line
The fold induction of `PhoQ, residues 284 288 289 292 302 303 ASTSDA` is reported as 0.753 (PhoP, residues 12 14 15 18 19 NFCKL (Escherichia coli, UniProt P23836); Sort-seq, item: YFP reporter; E. coli; PhoQ-PhoP variant library, added: 10 µM Mg2+; reference: high Mg2+ state, higher = stronger signaling).

A few entries again (block 1):
`CGCTTGAC` has an E-score of 0.0318.
